Experimental data collected from several papers.
Parts stem from different laboratories: compare values within a part only. Substitutions count along the parent as printed.

Block 1 — target: DDIT3, bZIP domain (human); technique: DHFR protein complementation; medium: yeast; baseline: wild-type JUN-FOS pair; reading: higher = stronger binding
Setting: single substitutions, most at no-binding floor
Starting sequence: JUN, bZIP domain (human); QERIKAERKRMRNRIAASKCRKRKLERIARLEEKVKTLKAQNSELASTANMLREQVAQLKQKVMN; partner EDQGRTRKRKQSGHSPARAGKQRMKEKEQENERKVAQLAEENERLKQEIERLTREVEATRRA
Variant | binding fitness [natural log]
E33S | -0.107
S43Y | -0.0195
E32C | -0.46
L59F | -0.535
K39F | -0.285
L38C | -1.24
E33K | 0.0116
A49L | 0.0281
T37H | 0.155
L31G | -0.821

Block 2 — target: CCNA2, cyclin fold, Cln2 fusion (human); technique: yeast growth competition, sequencing; medium: yeast; setting: strong parent motif; baseline: not given; reading: higher = stronger binding
Starting sequence: RBL1 docking peptide (human); GSAKRRLFGEDPP
Variant | normalised enrichment score
GSTKRRLFGEDPP [A3T] | 4.66
GSAKRRLEGEDPP [F8E] | -0.568
GSAKRRLFEEDPP [G9E] | 6.13
GSAKMRLFGEDPP [R5M] | 1.04
GSAKRRLFGEDSP [P12S] | 6.59
GSAKRRLPGEDPP [F8P] | 0.827
GSAKRRLFVEDPP [G9V] | 7.2
GSAKRRLYGEDPP [F8Y] | 1.81
GSAKRTLFGEDPP [R6T] | 2.28
GSAKRRLFGEVPP [D11V] | 5.07
GSAKCRLFGEDPP [R5C] | 1.82
GSAKTRLFGEDPP [R5T] | 0.539
GSAKRRLKGEDPP [F8K] | 1.14

Block 3 — technique: RNA Bind-n-Seq; molecule type: RNA; medium: in vitro; tested at: 365 nM; baseline: no-protein control; reading: higher = stronger binding
Target: RNA binding protein fox-1 homolog 2, RRM domain, GST-SBP tag (RBFOX2, Homo sapiens, UniProt O43251-10, residues 100-194)
Setting: natural RNA segment, single round, ends assumed
All sequences stand within: GGGAGUUCUACAGUCCGACGAUC … UGGAAUUCUCGGGUGCCAA
Construct (chain): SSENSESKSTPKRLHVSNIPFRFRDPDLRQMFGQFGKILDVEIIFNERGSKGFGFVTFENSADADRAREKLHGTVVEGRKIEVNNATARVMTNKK
Sequence | RBNS enrichment (R)
AUCUAGGAACCGCCGCUGCCUGCUGAGGGCCAGGCCCCUCACGCCCUCGCCCCAGGCCCGGGUCCUCCAGCGUUGAACACUUCCUUGCUUUUUUCACAUGUUUUAUGGAA | 3.1
AGAAAAAAAAAGAAUAAAUAAAGGAAGAGGUUUAUAAUUUGCCCUAUAUCUGUACAGAGUAUAUUCGGUAAGUGCACUAUUAAAUGUCUAAGGGAAGAGUCUGGCCUGCU | 1.64
CAAAUUAAAAUUCCAAAAUUCAUUGAAAUCCUAAAGCCUUGAUAUUAUAUUCUUUAUAAGGCGUGUGCCAGCCUGUAUAGUAUAUAAGAGAGAGGGGUGUUUGUGUGUAU | 1.49
UUAAAUUUCUGUUUACAUUGAAAGCUGUUCAUUCAUGGCGCCCCCCCCCCCCCAAUCAUAAGACCAAAGAUGACCAAAUAAUAUGGUAGACUCUGAUUACAGUCUGACCU | 0.354
GAUAGUUGCUCACACACCAUUGAGCAAACGUGUCUUGUUCCUUGUAUCUCUUUUCUUCCAGCCCUGAGUGGCUGCGCUGCUGCCAUAUGUGACAAGUGGUCCUCACCAGU | 0.222
UUGCACAGUACUAAGAGACUCAUUCAGAAAUCAAGACUUUAGAUGUAAUAUGUUGAUUAAAAUGUAGCACUAGAAAGCUUGUACUGAAAAUAAAGUCUGUGAGUGUGGGU | 0.528
UUAUAAAUAUAUAUUAUAUAAAUAUAUGACAAAGGAAAAUGUUUCAGAUGUCUAUUUGUAUAAUUACUUGAUCUACACAGUGAGGAAAAAAAUGAAUGUAUUUCUGUUUU | 1.23
CUUUUGAUCUGCCAAGGAUUUCCUCUCAGAGCUGUUGCACAGACAGAGAUUGUACUUGGUAAGAUACCAAACAAGACAGAUAUGGAUCUAAAUUUCUAAUGUGUUCUAUG | 0.388

Other studies, line by line
Substance | target | test | system | setting | scale | quantity | value
PhoQ, residues 284 288 289 292 302 303 NLALSC | PhoP, residues 12 14 15 18 19 QQAYL (Escherichia coli, UniProt P23836) | Sort-seq, item: YFP reporter | E. coli | PhoQ-PhoP variant library, added: 10 µM Mg2+ | baseline: high Mg2+ state, higher = stronger signaling | fold induction | 2.02

Some of these lines once more (block 1):
Variant | binding fitness [natural log]
L38C | -1.24
L59F | -0.535
E33K | 0.0116
E32C | -0.46
A49L | 0.0281
